Measured values pooled from the literature.
Protocols differ between the studies behind these lines.
Organism: Staphylococcus aureus

CC(C)C[C@H](NC(=O)[C@H](CC(N)=O)NC(=O)[C@H](CCCNC(=N)N)NC(=O)[C@@H](CC(C)C)NC(=O)[C@H](Cc1ccc(-c2ccccc2)cc1)NC(=O)[C@H](CC(=O)O)NC(=O)[C@H](CCCCN)NC(=O)[C@@H](CC(C)C)NC(=O)[C@H](CCCNC(=N)N)NC(=O)[C@H](CCC(N)=O)NC(=O)[C@@H](NC(=O)[C@@H](CC(C)C)NC(=O)[C@H](CCCNC(=N)N)NC(=O)[C@H](CCCCN)NC(=O)[C@H](Cc1ccc(-c2ccccc2)cc1)NC(=O)CN)C(C)C)C(=O)N[C@H](C(N)=O)C(C)C has an MIC of 8 µM (USA300 LAC; overnight, trypsin pretreated).
The MIC of COC1C(C)C2C(C=CC3C(C)C=CC=CC(C)OC(=O)C(C)C(=O)C(Cl)(Cl)C(=O)C32)CC1(C)O (stereo not shown) is reported as 1.6 µg/mL (microbial growth, broth dilution; NEWMAN).
The MIC of Oc1c(Br)cc(Br)c2nc3cc(Br)ccc3nc12 is reported as 0.1 µM (broth microdilution; MRSA 44).
CN(C)c1cc(CNCC2CCCCC2)c(O)c2c1C[C@H]1C[C@H]3[C@H](N(C)C)C(O)=C(C(N)=O)C(=O)[C@@]3(O)C(O)=C1C2=O gave an MIC of 16 µg/mL (MRSA 5, Tet M, 50% mouse serum).
CC(C)C[C@H](NC(=O)[C@H](CC(N)=O)NC(=O)[C@H](CCCNC(=N)N)NC(=O)[C@@H](CC(C)C)NC(=O)[C@H](Cc1ccc2ccccc2c1)NC(=O)[C@H](CC(=O)O)NC(=O)[C@H](CCCCN)NC(=O)[C@@H](CC(C)C)NC(=O)[C@H](CCCNC(=N)N)NC(=O)[C@H](CCC(N)=O)NC(=O)[C@@H](NC(=O)[C@@H](CC(C)C)NC(=O)[C@H](CCCNC(=N)N)NC(=O)[C@H](CCCCN)NC(=O)[C@H](Cc1ccccc1)NC(=O)CN)C(C)C)C(=O)N[C@H](C(N)=O)C(C)C has an MIC of 25 µM (broth microdilution; USA300 LAC, MRSA).
For CC(=O)[O][Ag]=[c]1n(C)ccn1CC(O)c1ccccc1 (stereo not shown), the MIC was 5 µg/mL (broth dilution; ATCC 23235; 18 h, 37 °C).
For C[n+]1ccc(/C=C2\Sc3ccccc3N2CCCN2CCCC2)c2ccccc21, the MIC was 16 µg/mL (microbial growth, broth dilution; ATCCBAA1720 MRSA).
With CN(Cc1cc(N(C)C)c2c(c1O)C(=O)C1=C(O)[C@]3(O)C(=O)C(C(N)=O)=C(O)[C@@H](N(C)C)[C@@H]3C[C@@H]1C2)CC(C)(C)C the MIC was 32 µg/mL (MRSA 5, Tet M, 50% mouse serum).
For COc1cc(OC)c2c(c1)C(=O)c1cc3oc(=O)cc(-c4ccc(Cl)cc4)c3c(O)c1C2=O, the MIC was 64 µg/mL (microbial growth).
The MIC of COc1cc2c(=O)c(C(=O)NCCNCCO)cn(Cc3ccccc3)c2cc1OCc1ccc(C(C)(C)C)cc1 is reported as < 0.25 µg/mL (ATCC 43300 MRSA; ≥80% growth inhibition).
For CC1=CC2(C)C(=C(C)C3C4CC(C)CC(C)C4C4Oc5ccc(cc5)CC5(O)NC(=O)C(=C(O)C2C43)C5Nc2ncnc3c2ncn3C2OC(CO)C(O)C2O)C1C (stereo not shown), the MIC was 6.3 µM (microbial growth, broth dilution; ATCC29213).
CN(C)c1cc(CNC(C)(C)C)c(O)c2c1C[C@H]1C[C@H]3[C@H](N(C)C)C(O)=C(C(N)=O)C(=O)[C@@]3(O)C(O)=C1C2=O has an MIC of 4 µg/mL (MRSA 5, Tet M ribosome protection).
CNC(CC(C)C)C(=O)NC1C(=O)NC(CC(N)=O)C(=O)NC2C(=O)NC3C(=O)NC(C(=O)NC(C(=O)O)c4cc(O)cc(O)c4-c4cc3ccc4O)C(O)c3ccc(c(Cl)c3)Oc3cc2cc(c3OC2OC(CO)C(O)C(O)C2OC2CC(C)(NC(=O)CCCCCC[n+]3ccccc3)C(O)C(C)O2)Oc2ccc(cc2Cl)C1O (stereo not shown) gave an MIC of 64 µg/mL (agar dilution; MRSA clinical isolate MRSA3).
COC1COC(=O)N1/N=C/c1ccc([N+](=O)[O-])o1 (stereo not shown) has an MIC of > 50 µg/mL (microbial growth, broth dilution; ATCC29213; 18 h).
With CN(C)c1cc(CNCc2ccco2)c(O)c2c1C[C@H]1C[C@H]3[C@H](N(C)C)C(O)=C(C(N)=O)C(=O)[C@@]3(O)C(O)=C1C2=O the MIC was 1 µg/mL (RN4250, Tet K efflux).
With CC(C)=CCc1cc2c(cc1O)OC[C@H]1c3ccc(O)c(CC=C(C)C)c3O[C@@H]21 the MIC was 2 µg/mL (ATCC 25923).
The MIC of CC[C@H](C)[C@H](N)C1=N[C@H](C(=O)N[C@@H](CC(C)C)C(=O)N[C@H](CCC(=O)O)C(=O)N[C@H](C(=O)N[C@H]2CCCCNC(=O)[C@H](CC(N)=O)NC(=O)[C@@H](CC(=O)O)NC(=O)[C@H](Cc3c[nH]cn3)NC(=O)[C@@H](Cc3ccccc3)NC(=O)[C@H]([C@@H](C)CC)NC(=O)[C@@H](CCCN)NC2=O)[C@@H](C)CC)CS1 is reported as 2 µg/mL (broth microdilution; ATCC 29213, LB medium; 18 h, 37 °C, together with: ZnSO4 0.3 mM).
Cc1cc(/C=C2\Sc3ccccc3N2CCCN2CCCC2)c2ccccc2[n+]1C has an MIC of 32 µg/mL (microbial growth, broth dilution; ATCC29213).
N#Cc1ccc2cccc(O)c2n1 gave an MIC of > 1500 µM (microbial growth, agar dilution; ATCC29213).
CCCCCCCCCc1nc2cc(C(F)(F)F)ccc2c(=O)n1N gave an MIC of > 100 µM (broth microdilution; RN6390B).
With CN(C)c1cc(CN2CCOCC2)c(O)c2c1C[C@H]1C[C@H]3[C@H](N(C)C)C(O)=C(C(N)=O)C(=O)[C@@]3(O)C(O)=C1C2=O the MIC was 2 µg/mL (RN4250, Tet K efflux).
The MIC of CC(=O)c1ccc2c(c1)sc1nc(=O)c(C#N)cn12 is reported as < 54 µg/mL (microbial growth, broth dilution).
COc1cc(NC(=O)CSc2nc3ccccc3c(=O)n2-c2ccc(S(N)(=O)=O)cc2)cc(OC)c1OC has an MIC of 31.2 µg/mL (methicillin-resistant; 24 h, 37 °C).
With CN(C)c1cc(CN2CCCC2)c(O)c2c1C[C@H]1C[C@H]3[C@H](N(C)C)C(O)=C(C(N)=O)C(=O)[C@@]3(O)C(O)=C1C2=O the MIC was 2 µg/mL (microbial growth, broth dilution).
CCc1[nH]c(C(=O)N[C@@H]2CCN(c3nnc(C(C)(C)O)s3)C[C@@H]2OC)nc1Cl has an MIC of 0.5 µg/mL (ATCC 43300).
CC1OCC2OC(OC3C(N)CC(N)C(O)C3OC3OC(CO)C(OC4OC(CN)C(O)C(O)C4N)C3O)C(N)C(O)C2O1 (stereo not shown) gave an MIC of 32 µg/mL (broth microdilution; MRSA isolate AG 042).
CCCCCCCCCc1nc2cc(Cl)ccc2c(=O)n1CCCN has an MIC of 2.3 µg/mL (RN6390B).
Cc1ccc(C(=O)Sc2cccccc2=O)cc1 has an MIC of < 20 µM (ATCC 29213).
With CNC(CC(C)C)C(=O)NC1C(=O)NC(CC(N)=O)C(=O)NC2C(=O)NC3C(=O)NC(C(=O)NC(C(=O)O)c4cc(O)cc(O)c4-c4cc3ccc4O)C(O)c3ccc(c(Cl)c3)Oc3cc2cc(c3OC2OC(CO)C(O)C(O)C2OC2CC(C)(NC(=O)CCCC[n+]3ccccc3)C(O)C(C)O2)Oc2ccc(cc2Cl)C1O (stereo not shown) the MIC was 64 µg/mL (agar dilution; MRSA clinical isolate MRSA3).
CCCCCCCCN1C(=O)/C(=N\NC(=N)N)c2cc(C)ccc21 gave an MIC of 6 µg/mL (microbial growth, broth dilution; 18 h).
With CCN(CC)CCCN1/C(=C/c2cc(C)[n+](C)c3ccccc23)Sc2ccccc21 the MIC was 2 µg/mL (broth microdilution; ATCC 29213).
CC1(C)S[C@@H]2[C@H](NC(=O)[C@H](NC(=O)C3=C(O)C(c4ccccc4F)NC3=O)c3ccccc3)C(=O)N2[C@H]1C(=O)O (stereo partly shown) has an MIC of 0.78 µg/mL (microbial growth, broth dilution; ATCC29213 MSSA; drug-resistant strain).
The MIC of NC[C@@H]1O[C@H](O[C@H]2[C@@H](O)[C@H](O[C@@H]3[C@@H](O)[C@H](N)C[C@H](N)[C@H]3O[C@H]3O[C@H](CO)[C@@H](OCC(O)CO)[C@H](O)[C@H]3N)O[C@@H]2CO)[C@H](N)[C@@H](O)[C@@H]1O (stereo partly shown) is reported as 16 µg/mL (broth microdilution; MRSA isolate AG 045).
The MIC of c1ccc(CN2CCOCCOCCN(CCCCCCCCCCCCCCN3CCOCCOCCN(CCCCCCCCCCCCCCN4CCOCCOCCN(Cc5ccccc5)CCOCCOCC4)CCOCCOCC3)CCOCCOCC2)cc1 is reported as 1.5 µM (microbial growth; MRSA USA100; drug-resistant strain).
With CO[C@H]1[C@H](O)[C@@H](N)[C@@H](O[C@H]2[C@H](O[C@@H]3O[C@H](CO)[C@@H](O[C@H]4O[C@@H](CN)[C@@H](O)[C@H](O)[C@H]4N)[C@H]3O)[C@@H](O)[C@H](N)C[C@@H]2N)O[C@@H]1CO the MIC was 32 µg/mL (broth microdilution; MRSA isolate AG 045).
CNC(CC(C)C)C(=O)NC1C(=O)NC(CC(N)=O)C(=O)NC2C(=O)NC3C(=O)NC(C(=O)NC(C(=O)NCCCNC(=N)N)c4cc(O)cc(O)c4-c4cc3ccc4O)C(O)c3ccc(c(Cl)c3)Oc3cc2cc(c3OC2OC(CO)C(O)C(O)C2OC2CC(C)(N)C(O)C(C)O2)Oc2ccc(cc2Cl)C1O (stereo not shown) gave an MIC of 0.12 µg/mL (MRSA ATCC 43300).
CN(C)c1cc(CN2CCCCC2)c(O)c2c1C[C@H]1C[C@H]3[C@H](N(C)C)C(O)=C(C(N)=O)C(=O)[C@@]3(O)C(O)=C1C2=O gave an MIC of 1 µg/mL (MRSA 5, Tet M, 50% mouse serum).
With COc1ccc(NC(=O)C2C(=O)C(c3ccccc3)c3ccc4c(c32)C(=O)c2ccccc2C4=O)cc1 (stereo not shown) the MIC was > 100 µg/mL (microbial growth).
With CNC(CC(C)C)C(=O)NC1C(=O)NC(CC(N)=O)C(=O)NC2C(=O)NC3C(=O)NC(C(=O)NC(C(=O)O)c4cc(O)cc(O)c4-c4cc3ccc4O)C(O)c3ccc(c(Cl)c3)Oc3cc2cc(c3OC2OC(CO)C(O)C(O)C2OC2CC(C)(NC(=O)CCCC[N+](C)(C)C)C(O)C(C)O2)Oc2ccc(cc2Cl)C1O (stereo not shown) the MIC was 512 µg/mL (agar dilution; MRSA clinical isolate MRSA3).
For [N-]=[N+]=NC1COC(=O)N1/N=C/c1ccc([N+](=O)[O-])o1 (stereo not shown), the MIC was 3.12 µg/mL (microbial growth, broth dilution; ATCC29213; 18 h).
For COCCNCc1cc(N(C)C)c2c(c1O)C(=O)C1=C(O)[C@]3(O)C(=O)C(C(N)=O)=C(O)[C@@H](N(C)C)[C@@H]3C[C@@H]1C2, the MIC was 2 µg/mL (RN4250, Tet K efflux).
FC(F)(F)c1cc(CSc2nnc(C34CC5CC(CC(C5)C3)C4)n2-c2ccccc2)cc(C(F)(F)F)c1 has an MIC of 0.5 µg/mL (two-fold dilution; IFO 3060; 24 h, 36 °C).
The MIC of CCCCCCCCCc1nc2cc(F)ccc2c(=O)n1O is reported as 100 µM (broth microdilution; RN6390B).
